# Measured values collected from several papers.
# A part holds a random share of what one study measured. Positions count from the first letter of the parent shown.

# Block 1
# Target: CEBPA, bZIP domain (human)
# Method: DHFR protein complementation
# Sample: yeast
# Setting: single substitutions, most at no-binding floor
# Baseline: wild-type JUN-FOS pair
# Direction: higher = stronger binding
# Starting sequence: JUN, bZIP domain (human); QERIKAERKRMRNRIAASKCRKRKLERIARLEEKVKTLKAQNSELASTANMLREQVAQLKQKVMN; partner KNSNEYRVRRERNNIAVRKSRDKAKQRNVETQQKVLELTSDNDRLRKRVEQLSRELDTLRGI
Variant,binding fitness [natural log]
Q55F,-1.6
N42A,-1.39
T37L,-1.34
K39F,-1.53
M51S,-1.44
T37W,-1.49
V35A,-1.49
K39I,-1.4
R53M,-1.43
Q55P,-1.52
N42W,-1.51
L45Q,-1.48
A49C,-1.48
S47N,-1.42

# Block 2
# Target: CCND3, cyclin fold, Cln2 fusion (human)
# Method: yeast growth competition, sequencing
# Sample: yeast
# Setting: weak parent motif
# Baseline: not given
# Direction: higher = stronger binding
# Starting sequence: DNAH7 docking peptide (human); HELFQRLDFDNDG
Variant,normalised enrichment score
F9A,-0.000274
R6A,-0.311
E2A,0.205
L3A,-0.202
D10A,-0.389
D8A,0.248

# Block 3
# Target: ABI1, truncated, D143A, DHFR fusion (Arabidopsis thaliana)
# Method: DHFR PCA, deep sequencing
# Sample: yeast
# Setting: methotrexate growth selection, single substitutions
# Together with: (+)-ABA 0 µM
# Baseline: wild-type fitted maximum
# Direction: higher = stronger binding
# Starting sequence: PYL1, truncated, DHFR fusion (Arabidopsis thaliana); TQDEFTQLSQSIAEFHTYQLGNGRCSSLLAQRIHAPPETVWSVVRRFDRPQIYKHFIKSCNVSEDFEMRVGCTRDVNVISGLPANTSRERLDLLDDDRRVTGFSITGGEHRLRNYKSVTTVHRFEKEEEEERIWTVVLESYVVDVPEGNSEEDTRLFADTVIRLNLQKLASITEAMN; partner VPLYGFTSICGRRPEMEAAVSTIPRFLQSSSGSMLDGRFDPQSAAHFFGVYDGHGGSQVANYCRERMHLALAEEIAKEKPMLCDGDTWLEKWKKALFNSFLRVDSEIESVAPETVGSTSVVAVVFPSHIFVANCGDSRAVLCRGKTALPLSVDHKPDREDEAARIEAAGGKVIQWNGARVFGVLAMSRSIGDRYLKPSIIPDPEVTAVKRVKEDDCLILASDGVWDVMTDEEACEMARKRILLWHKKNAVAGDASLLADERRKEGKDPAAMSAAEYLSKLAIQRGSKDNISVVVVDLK
Variant,relative binding score [%]
R49D,-2.25
H55W,39.3
G81Y,5.7
V161W,76.7
I162C,11.9
S171Y,7.91
E174K,3.62
M176D,9.99
S140I,-3.43
T173C,68.3
V137G,1.21

# Block 4
# Target: UBE2M UBC core domain (UniProt P61081)
# Method: yeast two-hybrid
# Sample: yeast
# Setting: mostly zero background
# Baseline: not given
# Direction: higher = stronger interaction
# B1: BFAR RING domain (UniProt Q9NZS9); chain GPQISVSEFSCHCCYDILVNPTTLNCGHSFCRHCLALWWASSKKTECPECREKWEGFPKVS
# B2: CNOT4 RING domain (UniProt O95628); chain MSRSPDAKEDPVECPLCMEPLEIDDINFFPCTCGYQICRFCWHRIRTDENGLCPACRKPYPED
# B3: RUFY1 RING domain (UniProt Q96T51); chain QALKGHAWLKDDEATHCRQCEKEFSISRRKHHCRNCGHIFCNTCSSNELALPSYPKPVRVCDSCHTLLLQRCSSTAS
# B4: TRIM11 RING domain (UniProt Q96F44); chain LSTNLQEEATCAICLDYFTDPVMTDCGHNFCRECIRRCWGQPEGPYACPECRELSPQRNLRP
# B5: RNF186 RING domain (UniProt Q9NXI6); chain HSGSTECDLECLVCREPYSCPRLPKLLACQHAFCAICLKLLLCVQDNTWSITCPLCRKVTAVPGGLI
# Residues (chain): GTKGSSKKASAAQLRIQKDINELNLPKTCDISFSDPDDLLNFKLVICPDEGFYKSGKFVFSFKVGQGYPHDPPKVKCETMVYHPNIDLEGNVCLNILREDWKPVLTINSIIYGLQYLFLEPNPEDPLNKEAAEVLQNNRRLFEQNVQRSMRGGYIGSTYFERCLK
Molecule,lacZ reporter activity
B1 (BFAR RING domain),0
B2 (CNOT4 RING domain),0
B3 (RUFY1 RING domain),0
B4 (TRIM11 RING domain),0
B5 (RNF186 RING domain),0
DDVLTKDAGECVICLEELLQGDTIARLPCLCIYHKSCIDSWFEVNRSCPEHPAD (ZNRF1 RING domain (UniProt Q8ND25)),0

# A few entries again (block 2):
Variant,normalised enrichment score
F9A,-0.000274
R6A,-0.311
E2A,0.205
L3A,-0.202
D10A,-0.389
D8A,0.248
